{"data": "Experimental data gathered from unrelated publications", "note": "Lines come from different studies, so protocols differ. ± marks the error that the study gave."}
{"SMILES": "CCCOC(=O)Cc1c(C)n(C(=O)c2ccc(Cl)cc2)c2ccc(OC)cc12", "test": "hot plate test", "test system": "BALB/c mice", "setting": "75 mg/kg, 90 min", "quantity": "latency of nociceptive response", "result": "15.2 ± 1.11 s"}
{"SMILES": "CSCCNc1nc(SCCC(F)(F)F)nc2c1ncn2[C@@H]1O[C@H](COP(=O)(O)OP(=O)(O)C(Cl)(Cl)P(=O)(O)O)[C@@H](O)[C@H]1O", "test": "ADP-induced platelet aggregation, light transmittance aggregometry", "test system": "human patients, platelet-rich plasma", "setting": "dose not given, 15 min, aggregation above 59%, with: ADP 20 µM", "how to read": "baseline: patients", "quantity": "high residual platelet reactivity", "result": "58%"}
{"SMILES": "CC(C)c1cnc(-c2cc(Cl)ccc2F)cc1Nc1ccncc1C(=O)NC(CO)CO", "test": "measured: pSMAD2", "test system": "MC-38 tumour-bearing mouse, tumour", "setting": "100 mg/kg, 0 to 8 h average", "how to read": "baseline: vehicle", "quantity": "inhibition", "result": "64%"}
{"SMILES": "Cc1cc(O)c(C=O)c2c1C(=O)Oc1c(CO)c(O)c3c(c1O2)C(O)OC3=O (centres unmarked)", "test": "copulatory behaviour test", "test system": "rat, male, streptozotocin-induced diabetes", "setting": "10 mg/kg, day 63", "quantity": "Intromission latency", "result": "736 ± 34.5 s"}
{"SMILES": "COc1ccc(C2CC(c3ccc(C)cc3)=Nc3ccccc3S2)cc1 (centres unmarked)", "test system": "Wistar rat, STZ-induced diabetes", "setting": "oral, 10 mg/kg once daily, day 28", "quantity": "body weight", "result": "177 ± 4.88 g"}
{"SMILES": "Cc1cc2c(cc1C1(c3ncc(C(=O)O)cn3)CC1)C(C)(C)CCC2(C)C", "test": "RNA sequencing, measured: Angptl4 mRNA", "test system": "rat, brain", "setting": "dose not given, 24 h, single dose", "how to read": "baseline: vehicle", "quantity": "log2 fold change", "result": -0.64}
{"SMILES": "Cc1cc(=O)[nH]c2ccc(OCCCC(=O)N3CCCCC3)cc12", "test system": "rat, isolated spontaneously beating atria", "setting": "100 µM", "how to read": "baseline: baseline", "quantity": "contraction rate increase", "result": "43 ± 11%"}
{"SMILES": "CN1Cc2c(Cl)cc(Cl)cc2C(c2cccc(S(=O)(=O)NCCOCCOCCNC(=O)C(O)C(O)C(=O)NCCOCCOCCNS(=O)(=O)c3cccc(C4CN(C)Cc5c(Cl)cc(Cl)cc54)c3)c2)C1 (centres unmarked)", "test system": "Sprague Dawley rats", "setting": "oral, 3 mg/kg, 16 h", "how to read": "higher = more watery", "quantity": "stool form score", "result": 1.5}
{"SMILES": "CCn1cnc(C[C@H](NC(=O)c2nccnc2N)C(=O)N2CCC[C@H]2C(N)=O)c1", "test system": "Swiss albino mice", "setting": "iv, 10 µmol/kg, with: pentobarbital 50 mg/kg ip", "quantity": "sleeping time", "result": "47 ± 11 min"}
{"SMILES": "COc1ccc(C2CC(c3ccc(C)cc3)=Nc3ccccc3S2)cc1OC (centres unmarked)", "test system": "Wistar rat, STZ-induced diabetes, serum", "setting": "20 mg/kg, 28 days", "quantity": "AST (SGOT)", "result": "20.4 ± 2.29 IU/L"}
{"SMILES": "O=C1NCC(c2cccc(C(F)(F)F)c2)C1C(=O)Nc1ccccc1F (centres unmarked)", "test system": "whole plants", "setting": "concentration not given", "quantity": "herbicidal activity", "result": "active"}
{"SMILES": "CC/C=C\\C/C=C\\C/C=C\\C/C=C\\C/C=C\\CCCCOC(CC)C(=O)O (centres unmarked)", "test system": "APOE*3Leiden.CETP mice, high-fat/cholesterol diet", "setting": "dose not given, 20 weeks", "how to read": "baseline: control", "quantity": "hepatic arachidonic acid", "result": "decreased"}
{"SMILES": "Cc1nc(C)c(C=[N+]([O-])C(C)(C)C)nc1C", "test": "Western blot, measured: Akt phospho-Ser473", "test system": "mouse, MPTP model", "setting": "30 mg/kg", "quantity": "protein level increase", "result": "90%"}
{"SMILES": "C[N+](C)(CI)CCO", "test system": "human platelet-rich plasma", "setting": "20 µM, with: ADP 2 µM", "quantity": "platelet aggregation", "result": "no effect"}
{"note": "Some of these lines once more:"}
{"SMILES": "CC(C)c1cnc(-c2cc(Cl)ccc2F)cc1Nc1ccncc1C(=O)NC(CO)CO", "test": "measured: pSMAD2", "test system": "MC-38 tumour-bearing mouse, tumour", "setting": "100 mg/kg, 0 to 8 h average", "how to read": "baseline: vehicle", "quantity": "inhibition", "result": "64%"}
